Measurements gathered from unrelated publications.
Numbered parts are unrelated; each lists some results of a single study. Values joined by “and” are separate records of one study, mostly repeats; a detail may differ.

Sample 1 — read-out: cell-free assay; tested at: 10 µM
Target: 5-hydroxytryptamine receptor 5A (HTR5A, Homo sapiens, UniProt P47898)
UniProt P47898, sequence (whole entry, looked up): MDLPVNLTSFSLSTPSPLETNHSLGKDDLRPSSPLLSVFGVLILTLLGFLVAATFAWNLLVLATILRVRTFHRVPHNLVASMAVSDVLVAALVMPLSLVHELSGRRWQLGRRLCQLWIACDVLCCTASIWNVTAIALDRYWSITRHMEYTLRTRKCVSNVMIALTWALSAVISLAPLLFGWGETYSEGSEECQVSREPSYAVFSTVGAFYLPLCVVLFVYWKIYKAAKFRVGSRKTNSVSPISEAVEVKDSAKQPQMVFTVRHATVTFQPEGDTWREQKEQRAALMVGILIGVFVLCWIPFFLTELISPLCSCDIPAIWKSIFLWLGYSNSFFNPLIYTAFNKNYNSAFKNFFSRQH
For `Cc1c(NC(=O)c2cc(C(N)=O)nc3cc(F)ccc23)c(C(F)(F)F)nn1Cc1ccc(C(C)(C)C)cc1`, the inhibition was 8.32%.
`CC(=O)C1=C(C)N(c2cccc(C(F)(F)F)c2)C(=O)N[C@H]1c1ccc(C#N)nc1` gave an inhibition of 8.86%.
`COc1ccc2cc(OCC3(C(=O)O)CN(C(=O)c4ccc(F)cc4)C3)ccc2c1` has an inhibition of -8.97%.
The inhibition of `O=C(Nc1cnc(Oc2ccc(F)cc2)nc1)N1CCc2ncccc2[C@@H]1c1ccc(F)cc1` is reported as -11.2%.
With `CNC(=O)Nc1ccc2c(c1)[C@]1(CC2)OC(=O)N(CC(=O)N(Cc2ccc(F)cc2)[C@@H](C)C(F)(F)F)C1=O` the inhibition was 2.78%.
The inhibition of `O=C(NCc1ncc(C(F)(F)F)cc1Cl)c1ccc2c(c1)C1(CCS(=O)(=O)CC1)[C@@H](C1CC1)N2S(=O)(=O)c1ccc(F)cc1` is reported as -10.8%.

Sample 2 — read-out: enzyme activity; mode: inhibitor; tested at: 0.5 µM; baseline: control
Target: MAP kinase-activated protein kinase 3 (MAPKAPK3, Homo sapiens, UniProt Q16644)
UniProt Q16644, sequence (whole entry, looked up): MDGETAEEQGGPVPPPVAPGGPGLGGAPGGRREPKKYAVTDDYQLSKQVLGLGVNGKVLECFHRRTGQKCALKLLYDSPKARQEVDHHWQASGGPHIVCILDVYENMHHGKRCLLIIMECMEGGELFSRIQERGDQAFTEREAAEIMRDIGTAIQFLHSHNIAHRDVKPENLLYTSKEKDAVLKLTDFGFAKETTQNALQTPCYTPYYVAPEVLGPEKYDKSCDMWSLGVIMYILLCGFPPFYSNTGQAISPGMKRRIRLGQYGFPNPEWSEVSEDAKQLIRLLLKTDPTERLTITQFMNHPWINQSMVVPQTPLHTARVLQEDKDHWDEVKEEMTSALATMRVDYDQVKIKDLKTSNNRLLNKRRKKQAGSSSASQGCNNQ
With `Cc1nc(-c2ccccc2)c(-c2ccncc2)o1` the remaining activity was 94.7%.
`COc1ccc(C(=O)Nc2sc3c(c2C(N)=O)CCCC3)cc1OC` gave a remaining activity of 97.2%.
For `Nc1ccc2ncnc(NCCc3ccc(Oc4ccccc4)cc3)c2c1`, the remaining activity was 101%.
`Cn1c2ccccc2c2c3c(c4c5ccccc5n(CCC#N)c4c21)CNC3=O` has a remaining activity of 83.7%.
`C#Cc1cccc(Nc2ncnc3cc(OCCOC)c(OCCOC)cc23)c1` has a remaining activity of 98.1%.
`Cn1sc(=O)n(Cc2ccccc2)c1=O` has a remaining activity of 105%.
`Nc1[nH]nc2nc3ccccc3nc12` has a remaining activity of 101%.
For `O=c1c2ccccc2[nH]c(=S)n1CCN1CCC(=C(c2ccc(F)cc2)c2ccc(F)cc2)CC1`, the remaining activity was 109%.
For `CN(C)c1ccc(C=C2C(=O)Nc3ccccc32)cc1`, the remaining activity was 100%.
`OCC(O)CCON=C1C(c2c(O)[nH]c3ccccc23)=Nc2ccccc21` (stereo not drawn) gave a remaining activity of 98.9%.
The remaining activity of `CC(C)[C@H](CO)Nc1nc(Nc2cc(N)cc(Cl)c2)c2ncn(C(C)C)c2n1` is reported as 98.4%.
`CO[C@H]1C[C@@H]2CC[C@@H](C)[C@@](O)(O2)C(=O)C(=O)N2CCCC[C@H]2C(=O)O[C@H]([C@H](C)C[C@@H]2CC[C@@H](O)[C@H](OC)C2)CC(=O)[C@H](C)/C=C(\C)[C@@H](O)[C@@H](OC)C(=O)[C@H](C)C[C@H](C)/C=C/C=C/C=C/1C` gave a remaining activity of 90.9%.
`O=C(O)c1ccc2c3c1cccc3c(=O)n1c3ccccc3nc21` has a remaining activity of 103%.
`N#CC(C#N)=C(N)/C(C#N)=C/c1ccc(O)cc1` gave a remaining activity of 99.9%.
`COc1ccc(OC)c2c(=S)c3ccccc3[nH]c12` gave a remaining activity of 87.7%.

Sample 3 — cell line: L929; read-out: caspase activity; method: Ac-DEVD-pNA absorbance; direction: higher = more activity
Structure (SMILES): CC(C)S(=O)(=O)c1ccc2nccc(Nc3ccc4scnc4c3)c2c1
5 µM, 3 h — caspase-3 activity: 0.067 a.u. and 0.066 a.u. and 0.166 a.u. and 0.065 a.u. and 0.169 a.u.
For 10 µM, 0 h: caspase-3 activity read 0.007 a.u. and 0.0075 a.u. and 0.019 a.u. and 0.011 a.u. and 0.015 a.u.
The caspase-3 activity was 0.012 a.u. and 0.0065 a.u. and 0.016 a.u. and 0.029 a.u. (5 µM, 1 h).

Sample 4 — species: mouse; matrix: microsomes or S9; tested at: 2 µM; time: 0.5 h
With `Cn1nc(C(=O)NCCn2ccc(-c3ccsc3)n2)ccc1=O` the remaining compound was 10.3%.
The remaining compound of `O=C(CC(c1ccccc1)c1ccccc1)N1CCN(c2ccccn2)CC1` is reported as 1.36%.
`CC(=O)CC(CC(C)C)n1nnc(-c2ccccc2)n1` (stereo not drawn) has a remaining compound of 0.0501%.
For `CC1CCc2c(sc(NC(=O)C3CCCN(S(C)(=O)=O)C3)c2C(N)=O)C1` (stereo not drawn), the remaining compound was 86.5%.
With `O=c1oc2ccccc2n1Cc1c(-c2ccc(F)cc2)nc2ccccn12` the remaining compound was 3.39%.
With `Cc1cnc(C2CC2)n1C1CCCN(C(=O)c2ccccn2)C1` (stereo not drawn) the remaining compound was 78%.
For `O=S(=O)(O)c1ccc(-c2cnc(-c3ccc(-c4ncc(-c5ccc(S(=O)(=O)O)cc5)o4)cc3)o2)cc1`, the remaining compound was 99%.
With `CCOC(=O)C1SC2(C(F)(F)F)CC1(O)C(C)(C)CO2` (stereo not drawn) the remaining compound was over 99%.
`COC(=O)[C@@]1(C)CCC(C(=O)Nc2ccccc2C(=O)O)C1(C)C` (stereo partly drawn) gave a remaining compound of 1.28%.

A few entries again (sample 2):
`O=C(O)c1ccc2c3c1cccc3c(=O)n1c3ccccc3nc21` has a remaining activity of 103%.
`N#CC(C#N)=C(N)/C(C#N)=C/c1ccc(O)cc1` gave a remaining activity of 99.9%.
`COc1ccc(OC)c2c(=S)c3ccccc3[nH]c12` gave a remaining activity of 87.7%.
